Assay results of several laboratories.
Each line is one published result; not all experiments were run side by side. Values joined by “and” are separate records of one study, mostly repeats; a detail may differ.
EGFR: Epidermal growth factor receptor (EGFR, Homo sapiens, UniProt P00533)

With `Cc1[nH]nc2c1N=C(c1ccccc1Cl)c1cnc(N3CCOCC3)cc1N2` the inhibition was 58.3% (EGFR; enzyme activity, inhibitor; 0.5 µM).
For `CN1CC[C@@H](COc2cnc(C#N)cc2-c2ccn3nc(NC(=O)C4CC4)cc3c2)C1`, the inhibition was 1% (EGFR; enzyme activity, inhibitor; 1 µM).
`COc1ccc(O)cc1-c1c[nH]c2ncc(-c3cncc(C(=O)N(C)C)c3)cc12` gave an inhibition of 6.87% (EGFR; binding, competition with immobilised ligand; 0.2 µM).
`Cn1ccc2cc(-n3c(=O)[nH]c4sc5c(c4c3=O)CCCC5)ccc21` gave an inhibition of -8% (EGFR; radioligand binding; 10 µM, added: EGF).
The inhibition of `CN1CCN(Cc2ccc(-c3ccc(CO[C@H]4CCC[C@@H]4NC(=O)c4cc(-c5cnn(C)c5)cnc4N)cc3)cc2)CC1` is reported as 6% (EGFR; enzyme activity, inhibitor; 0.1 µM).
`Cc1cccc(O[C@H]2CCC[C@@H](C(C)CNCc3ccncc3)C2)c1` (relative stereo) has an inhibition of 1% (EGFR; kinase activity, kinome panel screening; 10 µM).
For `C=CC(=O)Nc1cccc(-c2cnc3[nH]cc(C(=O)NC(C)(C)C)c3n2)c1`, the inhibition was 8% and 7% (EGFR; kinase activity; 0.1 µM).
With `NC(=O)C[C@H]1CCc2sc3ncnc(O[C@H]4CC[C@H](N5CCOCC5)CC4)c3c21` the inhibition was 15% (EGFR; enzyme activity, inhibitor; 10 µM).
`COc1cc(OC)c(F)c(/C=C/c2cnc3ccn(S(=O)(=O)c4cn(CCF)cn4)c3n2)c1F` gave an inhibition of 0% (EGFR; 10 nM).
With `Cc1ccc(-c2nn(-c3ccc(S(C)(=O)=O)cc3)cc2/C=N/N=C2/NC(=O)CS2)cc1` the inhibition was 70.5% (EGFR (Homo sapiens, UniProt P00533, L858R); kinase activity, inhibitor; 1 µM).
For `COc1ccc(C(=O)/C=C/c2ccccc2-c2c[nH]c3ccc(C#N)cc23)c(O)c1`, the inhibition was 13% (EGFR (Homo sapiens, UniProt P00533, L858R/T790M); enzyme activity, inhibitor; 20 µM).
The inhibition of `COc1cc(-n2cc3cc(F)cc(C(N)=O)c3n2)cc(Cl)c1C1CC(O)(CCO)Cc2ccccc21` (stereo not shown) is reported as 0.74% (EGFR; enzyme activity, inhibitor; 10 µM).
`Cc1nc2c(F)cc(-c3nc(Nc4ccc(CNC(=O)CCCCCCC(=O)NO)cc4)ncc3F)cc2n1C(C)C` gave an inhibition of 21% (EGFR; enzyme activity, inhibitor; 1 µM).
